Assay results from different studies.
A part holds a random share of what one study measured.

Block 1 — technique: RNA Bind-n-Seq; molecule type: RNA; medium: in vitro; concentration: 20 nM; setting: 6-mer, flanks averaged, single round; together with: 150 mM LiCl; relative to: input library; reading: higher = stronger binding
Target: TAR DNA-binding protein 43, full length, His tag (TARDBP, Homo sapiens, UniProt Q13148, residues 1-414)
| Oligonucleotide | 6-mer enrichment (R) |
| --- | --- |
| CUAAUU | 0.957 |
| ACUCGC | 0.815 |
| AAGUAA | 0.863 |
| GAGGAA | 0.993 |
| UGAUUG | 1.08 |
| GGUGUG | 2.24 |
| GCAAAA | 0.839 |
| GCUUUC | 0.92 |
| UCCAAA | 0.814 |
| ACCGAA | 0.808 |
| GUGCGC | 1.19 |
| GGUAAC | 0.885 |
| UUGCGU | 1.23 |
| ACGGGG | 1.11 |
| GCGUAU | 1.06 |
| GCUCAC | 0.845 |
| UGUUGA | 1.17 |
| UUUGGC | 1.06 |
| CGGCGA | 0.938 |
| GACUCG | 0.856 |
| GGCUCU | 0.901 |
| CAUGCU | 0.895 |
| ACGGAG | 0.958 |
| CGCGGA | 0.984 |
| CUGUUG | 1.06 |

Block 2 — technique: protein-binding microarray; molecule type: double-stranded DNA, one strand shown; medium: in vitro; concentration: 940 nM top; setting: 60-bp whole probe; together with: salmon DNA 0.4 mg/ml; relative to: random background probes; reading: higher = stronger binding; all sequences stand within: GCCTAGCAC … GTCTTGATTCGCTTGACGCTGCTG
Target: Interferon regulatory factor 5, full length, phosphomimetic (IRF5, Homo sapiens, UniProt Q13568-2, residues 1-514, S451D/S453D/S456D/S462D)
| Oligonucleotide | fitted relative affinity |
| --- | --- |
| TCACTTTTTTTTCTTTAACTGTGCTAG | 2.02 z-score |
| TTAGGACTGGACTATTGGTTAGTGCTA | -0.387 z-score |
| GAGGATCTCAGTATCGAGACGTGCTAG | 1.59 z-score |
| TTAGGTATCGGGTTTAGGTTAGTGCTA | 5.52 z-score |
| CGAGTTTTCTCTCCCATTCTGTGCTAG | 1.4 z-score |
| GACGGCCTGGGACTGGGGACGTGCTAG | -0.767 z-score |
| GCAAAAATGATTGGTTGAACGTGCTAG | -0.125 z-score |
| TTAGAATTGAGTATCGATTAGTGCTAG | 4.94 z-score |
| TTAGATTTCGGGACTGTATTAGTGCTA | 0.53 z-score |
| TAAGATATCAGACTGGATTAGTGCTAG | -0.57 z-score |
| TGATCTCTGGTCTTTGTCAGGTGCTAG | 0.49 z-score |
| GACGGTATCGACTATCCGGACGTGCTA | 6.14 z-score |
| TCAAATTTCCATTTTCTACTGTGCTAG | 0.533 z-score |
| ATGTTTTTCATTGTTTTTCAGTGCTAG | 1.31 z-score |
| AAACTCGTGTTTTTCTCCTAGTGCTAG | -0.0782 z-score |
| GACGGACTGGTACTGCTGACGTGCTAG | -0.678 z-score |
| GACGATATCAGTATTGAGACGTGCTAG | -0.0579 z-score |
| GACGATTTCGGGGTTCGAGACGTGCTA | 0.809 z-score |
| TTAGATTTCAGTATCGATTAGTGCTAG | 5.81 z-score |

Block 3 — technique: RNA Bind-n-Seq; molecule type: RNA; medium: in vitro; concentration: 365 nM; relative to: no-protein control; reading: higher = stronger binding
Target: RNA binding protein fox-1 homolog 2, RRM domain, GST-SBP tag (RBFOX2, Homo sapiens, UniProt O43251-10, residues 100-194)
Setting: natural RNA segment, single round, ends assumed
All sequences stand within: GGGAGUUCUACAGUCCGACGAUC … UGGAAUUCUCGGGUGCCAA
Residues (chain): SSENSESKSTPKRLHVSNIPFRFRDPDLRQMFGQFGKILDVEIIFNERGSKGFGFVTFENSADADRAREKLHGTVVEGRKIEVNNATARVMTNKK
| Oligonucleotide | RBNS enrichment (R) |
| --- | --- |
| AAAUCACUCUCAGCCCUGUAUUUGGUACCGGUGUGUCCCAGGUCAAUGUACAGAACUGCAGCCAAGGAGCUAAGAUGUAACAGAGAGAGAGAAGAGCUGGUGAACCAUAU | 0.554 |
| CCCAGGCUGUCUCAGUGUCAUCAUGUUGCCAGGUCUUUGUGUUUCUGCAGCCCACAUGAUCCUUGAGAGUUUUGGGUUUCGGUAACACCUCAGGGCCACUGCAUUGUUUU | 0.377 |
| GGCACCUCCGUGUUUGGUCUUUUUUUUCCCCUGUGUGAAAGAAGAAACGGCACGACCCCUUCUCAAGCUGGCUCACUCAGACACAUUGGGACAAACCCUGGACAGCCAUG | 0.243 |
| CCUGGACAGGACAUUUCACCUGCUAGUCUGUGCUAUUCUGGUAAAAUGAAGGGAUGCAUUGGACUAGACAAAAUGAUCUAAAAGUUUCCUUAUUAUAAAUUUUAGGAUUU | 0.509 |
| GUUUUAUGGUGCCUGAGUUAGUCCUGUGCCUAACCAGUGGAGUUUCCGUCUCUGUGCUUGCUAAUAGUUUCACAAGUGGCUUGACUUUUUUAGAAGUAUUAUGUGGUAUU | 0.981 |
| UGGGGAAGGGCCAGCCACUGACUACUUGAUCUUGGAGACCACAUUUAGAUGGAAAUGAGAGGACCUCCACAGCCCCGCCUCCCUGCCAGGAUGCUAGAUUAUUGGCUGGG | 1.15 |
| CAGUGGUUUCACAACAGUUCUCUUGUAUUUAUUUAUCAAUUAAAUCAAAUAAAAAUGAUUAUGUCAAUGCGUUUUCAGUUAUUUAAGUAACAGUUCUGUUUAAAGUGUGC | 0.748 |
| GGUACAAGUGGCAACCUGCUUCCAUGGCCGUGUAGAAGCAUGGUGCCCUGGCUUCUCUGAGGAAGCUGGGGUUCAUGACAAUGGCAGAUGUAAAGUUAUUCUUGAAGUCA | 0.744 |

Block 4 — technique: RNA Bind-n-Seq; molecule type: RNA; medium: in vitro; concentration: not given; setting: RNA with constant flanks, ends assumed; relative to: input RNA pool; reading: higher = stronger binding
Target: RING finger protein unkempt homolog, zinc fingers 1-6, GST-SBP tag (UNK, Homo sapiens, UniProt Q9C0B0, residues 30-357)
Chain of UniProt Q9C0B0 (30-357, looked up): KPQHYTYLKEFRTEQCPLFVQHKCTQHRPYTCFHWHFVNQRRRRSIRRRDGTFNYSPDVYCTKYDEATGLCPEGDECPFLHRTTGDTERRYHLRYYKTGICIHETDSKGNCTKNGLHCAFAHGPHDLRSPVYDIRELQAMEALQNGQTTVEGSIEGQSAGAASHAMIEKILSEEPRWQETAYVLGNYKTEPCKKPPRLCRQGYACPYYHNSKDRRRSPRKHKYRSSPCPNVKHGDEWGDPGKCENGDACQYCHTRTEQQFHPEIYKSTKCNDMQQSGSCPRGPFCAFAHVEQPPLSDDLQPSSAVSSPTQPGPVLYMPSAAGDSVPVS
All sequences stand within: GGGAGUUCUACAGUCCGACGAUC … CAACAGAGGAUUGAGCAUCA
| Oligonucleotide | bound/input enrichment [ratio] |
| --- | --- |
| CAGCAGACCUGCCCACUGUGCAAAUUCAACGUCCUGGGGAACCGCUACUCCGAUGAUCCGCUGCCCAGCUGGACUCUGCACAUGGGGAUGGACCCUUCCUGCCUGCACCCCGGUCCUCAG | 0.106 |
| CCAAAAGCAGUGGUUUCUCCUCCAAAGUUUGUAUUUGGUUCAGAGUCUGUUAAAAGCAUUUUCCGCCGUGAAAAAUCAAAACCAUUUGCAUUCGGCAACAGUUCAGCCACUGGGUCUUUG | 0.119 |
| CAGAUCCGAUGUCUCUGCCAGCUUGGGGCUGAAGUUACCGUGGUACCCUGGGACCACGAGUCCGACAGUCAGAAAUAUGACGGUCUCUUCCUAAGUAAUGGACCCGGUGACCCUGCCUCU | 0.1 |
| UUCCCAAGACCUUUAUAGGUGAUUUUGUUUUCUGGGCUCCUUAACUUCAUAAAUAGCCCGUAUCUUCCAGCAGUAGUAACAGUCUGGAUAACUUCUUCCAUAUCCCUCCCUCUUUGUUUU | 0.819 |
| GGAAGAGGUGGUGACCAGCAGAGUGGUUAUGGGAAGGUAUCCAGGCGAGGUGGUCAUCAAAACCGCUACAAACCAUACUAAAUUAUUCCAUUUGCAACUUAUCCCCAACAGGUGGUGAAG | 0.532 |
| AUCAUGGCUACAAACAGACCAGAUACACUGGAUCCUGCUUUGCUGCGUCCAGGAAGAUCCGACCGAAAAAUACAUAUUGAUUUGCCAAAUGAACAAGCAAGAUUAGACAUACUGAAAAUC | 1.89 |
| AUAGUAUGUGAUCCUGUAUAACAGACUGAGUCUAUUUAUAUUUUCUUUUUUUUAAGACUGUCCCGAAAUUUUGUGUAUUAUGAGGGGAAAAAAGGAAAAGCUUGAAUCUGUGUAGUCUCU | 0.533 |
| UUUUACCUGGAUAGGACUCUGUGGCUGGCCAAGUCCACCUCCUCAUCCUUUGCAUCAUUUACCGUUCAACUUUUCCAAGUGGUUUUAAUGAAGCUCAAUUUUGAAACUUACAAAUUGAAA | 0.385 |

Excerpt of the above (block 4):
| Oligonucleotide | bound/input enrichment [ratio] |
| --- | --- |
| GGAAGAGGUGGUGACCAGCAGAGUGGUUAUGGGAAGGUAUCCAGGCGAGGUGGUCAUCAAAACCGCUACAAACCAUACUAAAUUAUUCCAUUUGCAACUUAUCCCCAACAGGUGGUGAAG | 0.532 |
| AUCAUGGCUACAAACAGACCAGAUACACUGGAUCCUGCUUUGCUGCGUCCAGGAAGAUCCGACCGAAAAAUACAUAUUGAUUUGCCAAAUGAACAAGCAAGAUUAGACAUACUGAAAAUC | 1.89 |
| AUAGUAUGUGAUCCUGUAUAACAGACUGAGUCUAUUUAUAUUUUCUUUUUUUUAAGACUGUCCCGAAAUUUUGUGUAUUAUGAGGGGAAAAAAGGAAAAGCUUGAAUCUGUGUAGUCUCU | 0.533 |
| UUUUACCUGGAUAGGACUCUGUGGCUGGCCAAGUCCACCUCCUCAUCCUUUGCAUCAUUUACCGUUCAACUUUUCCAAGUGGUUUUAAUGAAGCUCAAUUUUGAAACUUACAAAUUGAAA | 0.385 |
